Assay results pooled from the literature.
Each line is one published result; not all experiments were run side by side.
Observed: metabolic stability
Species: human

With CC12CC3CC(C)(C1)CC(NC(=O)NC1CCC(Oc4ccc(C(=O)O)cc4)CC1)(C3)C2 (stereo not shown) the half-life was 8 min (liver microsomes).
With CNC(=O)C1CCN(c2ccccc2NC(=O)c2ccc(-c3c(C)ccc4[nH]ncc34)c(C)c2)CC1 the half-life was less than 100 min (liver microsomes; 2 µM).
CC(C)C[C@@H](NC(=O)[C@H](Cc1cccc2ccccc12)NC(=O)[C@H](CNC(=O)c1ccc2cc(F)ccc2c1)NC(=O)[C@H](CO)NC(=O)C1CCNCC1)C(=O)N[C@H](CO)C(=O)N1CCC[C@H]1C(=O)N[C@H](C(N)=O)[C@@H](C)O has a half-life of greater than 240 min (liver S9; 3 µM, pH 7.4).
O=C(NC1CC=C(c2cc3c(Nc4cc5ncsc5cc4F)ncnc3s2)CC1)NC1CCCC1 (racemic) has a half-life of greater than 120 min (liver microsomes).
The half-life of O=C(Nc1ccc(-c2noc(C3CC3)n2)c(Cl)c1)c1cccs1 is reported as 29.4 min (liver microsomes).
For CCC(CC)CN(C[C@@H](O)[C@H](Cc1ccccc1)NC(=O)O[C@H]1CO[C@H]2OCC[C@H]21)S(=O)(=O)c1ccc2ncsc2c1, the half-life was greater than 180 min (liver microsomes).
O=C(CCCCCCNC(=O)c1cc(C(=O)c2ccccc2)cn1Cc1ccc(F)cc1)NO gave a half-life of 510 min (liver microsomes; 0.5 µM, pH 7.4).
The half-life of C=CC(=O)Nc1cccc(Cn2ncc3cnc(Nc4cnn(CCOC)c4)nc32)c1 is reported as 60 min (hepatocytes).
For O=C(NC1CC1)N1CCC=C(c2cc3c(Nc4cc5ncsc5cc4F)ncnc3s2)C1, the half-life was greater than 120 min (liver microsomes).
The half-life of CC(C)(C)c1nc(-c2ccc(NC(=O)c3cccs3)cc2Cl)no1 is reported as 56.8 min (liver microsomes).
The half-life of O=C(NC1CC=C(c2cc3c(Nc4cc5ncsc5cc4F)ncnc3s2)CC1)NC1CC1 (racemic) is reported as greater than 120 min (liver microsomes).
For COc1cc(-c2nc3ccc(C(=O)NCCCN4CCN(c5ccccc5)C(=O)C4)cc3n2C2CCC2)cc(OC)c1OC, the half-life was 9 min (liver microsomes).
Cc1[nH]c2ccccc2c1CC(=O)N[C@@H](Cc1ccccc1)C(=O)N(C)c1ccccc1 gave a half-life of less than 1 min (liver microsomes; 1 µM, pH 7.4).
The half-life of O=C1N[C@H](CO)Cc2cccc(c2)CCCOc2cccc1c2 is reported as 31 min (liver microsomes; 1 µM).
The half-life of NC1CC=C(c2cc3c(Nc4cc5ncsc5cc4F)ncnc3s2)CC1 (stereo not shown) is reported as greater than 120 min (liver microsomes; 1 µM).
The half-life of O=C(O)C(Cc1c[nH]c2ccccc12)Nc1ccccc1 (stereo not shown) is reported as 268 min (liver microsomes; 1.5 µM, pH 7.4).
With Cc1ccc(N2C(=O)c3ccccc3NC23C(=O)N(C)c2ccc(Br)cc23)cc1 (stereo not shown) the half-life was less than 2.3 min (liver microsomes).
With Fc1cc2scnc2cc1Nc1ncnc2sc(C3=CCCNC3)cc12 the half-life was greater than 120 min (liver microsomes; 1 µM).
COc1cc(-c2nc3ccc(C(=O)NCCCN4CCN(C5CCCCC5)CC4)cc3n2C2CCC2)cc(OC)c1OC has a half-life of 38.3 min (liver microsomes).

A few entries again:
The half-life of NC1CC=C(c2cc3c(Nc4cc5ncsc5cc4F)ncnc3s2)CC1 (stereo not shown) is reported as greater than 120 min (liver microsomes; 1 µM).
The half-life of O=C(O)C(Cc1c[nH]c2ccccc12)Nc1ccccc1 (stereo not shown) is reported as 268 min (liver microsomes; 1.5 µM, pH 7.4).
With Cc1ccc(N2C(=O)c3ccccc3NC23C(=O)N(C)c2ccc(Br)cc23)cc1 (stereo not shown) the half-life was less than 2.3 min (liver microsomes).
